{"data": "Experimental data of several laboratories", "note": "Protocols differ between the studies behind these lines. ± marks the error that the study gave."}
{"SMILES": "C(=C/c1ccccc1)/c1ccccc1", "cell line": "U-937", "test": "apoptosis, measured: caspase-3 activity", "conditions": "24 h, lowest dose with significant induction", "scale": "relative to: vehicle", "quantity": "lowest effective concentration", "result": "2 µM"}
{"SMILES": "COc1ncccc1CN(C(=O)OCc1ccc([N+](=O)[O-])cc1F)[C@H]1[C@@H](C)[C@@H]1c1ccccc1 (racemic)", "cell line": "THP-1 cells", "test": "colony forming unit", "scale": "relative to: EC50 wild type over NTR-expressing", "quantity": "selectivity ratio", "result": "> 3"}
{"SMILES": "NS(=O)(=O)c1ccc(-n2cc(Cn3c(=O)c(Cc4ccccc4)nc4ccccc43)nn2)cc1", "cell line": "HCT-116", "test": "qRT-PCR, measured: HIF-1α", "conditions": "concentration not given, 72 h", "scale": "relative to: untreated", "quantity": "mRNA level", "result": "0.31 ± 0.002 fold"}
{"SMILES": "COc1ccc([C@@H]2CC(=O)c3c(O)cc(O[C@@H]4O[C@H](CO[C@@H]5O[C@@H](C)[C@H](O)[C@@H](O)[C@H]5O)[C@@H](O[C@H]5O[C@H](CO)[C@@H](O)[C@H](O)[C@H]5O)[C@H](O)[C@H]4O)cc3O2)cc1O", "cell line": "A549", "test": "cell growth or viability, MTS", "conditions": "100 µg/mL, 24 h", "quantity": "viability", "result": "47.5%"}
{"SMILES": "CS(C)=O.CS(C)=O.[Cl][Cu][Cl].c1ccc(-c2nnc(-c3ccc4c(c3)OCO4)[nH]2)nc1", "cell line": "T24", "test": "western blot, measured: Bcl-2", "conditions": "1.8 and 3.5 µM, 24 h", "quantity": "protein level", "result": "decreased"}
{"SMILES": "COc1cc(CNC(=O)C[C@H](C)CCC=C(C)C)ccc1OCc1cn(-c2ccc([N+](=O)[O-])cc2)nn1", "cell line": "NCI/ADR-RES", "test": "SRB", "conditions": "10 µM, 48 h", "quantity": "growth", "result": "17.6%"}
{"SMILES": "C=CC(OC(C)=O)c1ccc(OC(C)=O)c(OC)c1 (stereo not shown)", "cell line": "MDA-MB-231", "test": "Western blot", "conditions": "IC50, 24 h", "scale": "relative to: untreated", "quantity": "p53 protein level", "result": "3.4 fold"}
{"SMILES": "C=C(CC)C(=O)c1ccc(OCC(=O)NCCNC(=O)COc2ccc(C(=O)C(=C)CC)c(Cl)c2Cl)c(Cl)c1Cl", "cell line": "SK-OV-3/DDP", "test": "cell growth, CCK-8", "conditions": "72 h", "quantity": "IC10", "result": "3.5 µM"}
{"SMILES": "CC(C)Cc1ccc(C(C)C(=O)[O][Pt]([NH2])([NH2])([Cl])([Cl])[O]C(=O)CCCc2ccccc2)cc1 (stereo not shown)", "cell line": "six human cancer lines", "test": "cytotoxicity, MTT", "scale": "relative to: cisplatin", "quantity": "IC50 fold lower", "result": "~10 fold"}
{"SMILES": "C=CC(OC(C)=O)c1cc(OC)cc(OC)c1 (stereo not shown)", "cell line": "MDA-MB-231", "test": "cell growth or viability, MTT", "quantity": "IC20", "result": "28 µM"}
{"SMILES": "COc1cc(CNC(=O)C[C@H](C)CCC=C(C)C)ccc1OCc1cn(-c2ccc(Br)cc2)nn1", "cell line": "SK-MEL-28 melanoma cells", "test": "SRB", "conditions": "10 µM, 48 h", "quantity": "growth percent", "result": "96.5%"}
{"SMILES": "C[C@H](N)C(=O)N[C@@H](Cc1c[nH]c2ccccc12)C(=O)N[C@@H](CCC(N)=O)C(=O)N[C@@H](Cc1c[nH]c2ccccc12)C(=O)N[C@@H](CCCNC(=N)N)C(=O)N[C@@H](Cc1c[nH]c2ccccc12)C(=O)N[C@@H](CCC(N)=O)C(=O)N[C@@H](Cc1c[nH]c2ccccc12)C(=O)N[C@@H](CCCNC(=N)N)C(N)=O", "cell line": "young human fibroblasts primary", "test": "MTT", "conditions": "concentration not given, 48 h, 37 °C, 5% FBS", "scale": "relative to: untreated cells", "quantity": "viability", "result": "92 ± 2%"}
{"SMILES": "CC(C)C[C@H](NC(=O)[C@H](CC(C)C)NC(=O)[C@@H](Cc1c[nH]c2ccccc12)NC(=O)[C@H](Cc1ccccc1)NC(=O)[C@@H](Cc1c[nH]c2ccccc12)NC(=O)[C@H](CCC(N)=O)NC(=O)[C@H](CCC(N)=O)NC(=O)[C@@H]1CCCN1C(=O)[C@H](CCCCN)NC(=O)[C@@H]1CCCN1C(=O)[C@H](N)CCCNC(=N)N)C(N)=O", "cell line": "HEK293 expressing NK1R", "test": "antagonist, measured: SRE-SEAP", "conditions": "concentration not given, 30 min, washout 4 h, with: substance P", "quantity": "reporter activity", "result": "no effect"}
{"SMILES": "COc1cc(CNC(=O)C[C@H](C)CCC=C(C)C)ccc1OCc1cn(-c2ccc(C#N)cc2)nn1", "cell line": "SK-MEL-28 melanoma cells", "test": "SRB", "conditions": "10 µM, 48 h", "quantity": "growth percent", "result": "85.4%"}
{"SMILES": "CC1(CO)CCCC2(C)C1CCC1(C)c3cocc3CCC12 (stereo not shown)", "cell line": "VCaP", "test": "inhibitor, qRT-PCR, measured: PSA, FKBP5, TMPRSS2", "conditions": "10 µM, 16 h, androgen-induced transcripts, with: R1881 1 nM", "quantity": "mRNA level", "result": "inhibited"}
{"SMILES": "COc1cc(CNC(=O)C[C@H](C)CCC=C(C)C)ccc1OCc1cn(-c2ccc(Cl)c(Cl)c2)nn1", "cell line": "UO-31", "test": "SRB", "conditions": "10 µM, 48 h", "quantity": "growth percent", "result": "60.8%"}
{"SMILES": "N=C(N)NCCC[C@H](NC(=O)[C@H](Cc1c[nH]c2ccccc12)NC(=O)[C@H](CCC(N)=O)NC(=O)[C@H](Cc1c[nH]c2ccccc12)NC(=O)[C@H](CCCNC(=N)N)NC(=O)[C@H](Cc1c[nH]c2ccccc12)NC(=O)[C@H](CCC(N)=O)NC(=O)[C@H](Cc1c[nH]c2ccccc12)NC(=O)[C@@H](N)CCCNC(=N)N)C(N)=O", "cell line": "young human fibroblasts primary", "test": "MTT", "conditions": "concentration not given, 24 h, 37 °C, 5% FBS", "scale": "relative to: untreated cells", "quantity": "viability", "result": "100 ± 2%"}
{"SMILES": "CC(=O)OC[C@H]1O[C@@H](Sc2sc(C(=O)c3ccc(Br)cc3)c(N)c2-c2nc3ccccc3s2)[C@H](OC(C)=O)[C@@H](OC(C)=O)[C@@H]1OC(C)=O", "cell line": "Malme-3M", "test": "SRB", "conditions": "10 µM, 48 h", "scale": "relative to: untreated", "quantity": "growth", "result": "20%"}
{"SMILES": "Cc1c(C)c(C)[c-](C)c1C.[C-]#[O+].[C-]#[O+].[C-]#[O+].[Cl-].[Cl-].[Cl-].[Ir+3].[Re+].c1cnc(-c2ncccn2)nc1", "cell line": "MDA-MB-468", "test": "annexin V/PI flow cytometry", "conditions": "25 µM, 48 h", "quantity": "late apoptotic cells", "result": "4.19%"}
{"SMILES": "O=C(N1CCCC1)n1cc(-c2ccc(-c3ccccc3)cc2)nn1", "cell line": "mouse T-cells", "test": "N-terminal labelling enrichment, measured: TFG N-terminal peptides", "conditions": "1 nM, 6 h, protein median", "scale": "relative to: DMSO", "quantity": "SILAC ratio", "result": "1.13 ± 0.09"}
{"SMILES": "CC/C=C\\C/C=C\\C/C=C\\C/C=C\\C/C=C\\C/C=C\\CCC(=O)Nc1ccn(C2OC(CO)C(O)C2(F)F)c(=O)n1 (stereo not shown)", "cell line": "Malme-3M", "test": "cell growth or viability, SRB", "quantity": "GI50", "result": "10.1 µM"}
{"SMILES": "O=Cc1c(O)ccc2ccccc12", "cell line": "HUVEC", "test": "RNA sequencing, measured: STC1", "conditions": "75 µM, 24 h", "scale": "relative to: DMSO", "quantity": "log2 fold change", "result": 3.12}
{"SMILES": "O=C(Cn1c(=O)c(Cc2ccccc2)nc2ccccc21)NN1C(=O)c2ccccc2C1=O", "cell line": "HCT-116", "test": "qRT-PCR, measured: p21", "conditions": "concentration not given, 72 h", "scale": "relative to: untreated", "quantity": "mRNA level", "result": "2.21 ± 0.082 fold"}
{"SMILES": "Cc1cnc2c(ccc3c(C)c(C)cnc32)c1C.O=C([O-])Cc1ccccc1Nc1c(Cl)cccc1Cl.O=C([O-])Cc1ccccc1Nc1c(Cl)cccc1Cl.[Mn+2]", "cell line": "HMLER-shEcad", "conditions": "0.25 µM, 6 h", "scale": "relative to: untreated", "quantity": "peak intracellular ROS level", "result": "3.4 fold"}
{"SMILES": "CCCC(NC(=O)C(C#N)=Cc1nc(Cl)ccc1Cl)c1ccc(OCCN2CCOCC2)cc1 (stereo not shown)", "cell line": "Ramos", "test": "LFQ mass spectrometry", "conditions": "10 µM, 8 h", "quantity": "overlap with Myc targets", "result": "11.7%"}
{"SMILES": "CC(C)c1cccc(C(C)C)c1-n1c2c([n+](-c3c(C(C)C)cccc3C(C)C)[c]1[Au-][Cl])-c1cccc3cccc-2c13", "cell line": "human cancer cell lines", "test": "MTT", "conditions": "average over cell lines", "scale": "relative to: compound over cisplatin", "quantity": "IC50 ratio", "result": "~2 fold"}
{"SMILES": "COc1cc2c(Nc3ccc(NC(=O)c4ccccc4)cc3)ncnc2cc1OCCCN1CCOCC1", "cell line": "DLD-1, mitotic", "test": "measured: phospho-histone H3", "conditions": "concentration not given", "quantity": "histone H3 phosphorylation", "result": "not detected"}
{"SMILES": "CCC[C@@H]1O[C@@H](Oc2c(-c3ccc(O)cc3)oc3cc(O)cc(O)c3c2=O)[C@H](OC(C)=O)[C@H](OC(C)=O)[C@H]1NC(C)=O", "cell line": "MCF-10A", "test": "cell growth or viability", "conditions": "50 µM", "quantity": "inhibition", "result": "70%"}
{"SMILES": "CC(=O)N[C@H](C(=O)N[C@H](C(=O)N[C@@H](CCCNC(=N)N)C(=O)N1Cc2ccccc2C[C@H]1C(=O)N[C@@H](Cc1ccccc1)C(N)=O)C1CCCCC1)C(C)C", "cell line": "BC-3 T cells", "test": "inhibitor, CFSE dilution", "conditions": "concentration not given, 5 days, with: anti-CD3 antibody or PHA", "quantity": "T cell proliferation", "result": "no inhibition"}
{"SMILES": "COc1cc(CNC(=O)C[C@H](C)CCC=C(C)C)ccc1OCc1cn(-c2ccc(Cl)cc2Cl)nn1", "cell line": "SK-MEL-28 melanoma cells", "test": "SRB", "conditions": "10 µM, 48 h", "quantity": "growth percent", "result": "96.3%"}
{"SMILES": "COc1cc(C(=O)c2[nH]c(N)nc2-c2cccs2)cc(OC)c1OC", "cell line": "HeLa or A549 cells", "test": "γ-tubulin immunofluorescence", "conditions": "100 nM", "quantity": "multipolar mitotic spindles", "result": "24%"}
{"SMILES": "CO[C@H]1O[C@H](COC(c2ccccc2)(c2ccccc2)c2ccccc2)[C@@H](OS(=O)(=O)c2ccccc2)[C@H](OS(=O)(=O)c2ccccc2)[C@H]1OS(=O)(=O)c1ccccc1", "cell line": "Ehrlich", "test": "cell growth or viability, MTT", "conditions": "31.25 µg/mL, 24 h", "quantity": "inhibition", "result": "2.22%"}
{"SMILES": "CC(=C(c1ccc(O)cc1)c1ccc(Cl)cc1)c1ccc(Cl)cc1", "cell line": "OVCAR-4", "test": "cell growth or viability", "quantity": "GI50", "result": "0.77 µM"}
{"SMILES": "COc1cc(CNC(=O)C[C@H](C)CCC=C(C)C)ccc1OCc1cn(-c2ccccc2)nn1", "cell line": "NCI-H522", "test": "SRB", "conditions": "10 µM, 48 h", "quantity": "growth percent", "result": "85.5%"}
{"SMILES": "CC(C)c1cnn2c(NCc3ccccc3)cc(N[C@@H](CO)[C@H](O)CO)nc12", "cell line": "MCF7/MX (ABCG2-overexpressing)", "test": "cell growth, sulforhodamine B", "scale": "relative to: MCF7/MX over parental MCF7", "quantity": "GI50 ratio", "result": "> 2"}
{"SMILES": "COc1cc(CNC(=O)C[C@H](C)CCC=C(C)C)ccc1OCc1cn(-c2ccccc2Cl)nn1", "cell line": "NCI/ADR-RES", "test": "SRB", "conditions": "10 µM, 48 h", "quantity": "growth", "result": "24%"}
{"SMILES": "COc1cc2c(cc1C)NC(=O)C2=Cc1c(Cl)[nH]c2c1ccc1ccccc12", "cell line": "CNS cancer subpanel of NCI-60", "conditions": "48 h", "quantity": "TGI", "result": "3.39 µM"}
